# Published values collected from several papers.
# Each line is one published result; not all experiments were run side by side. Numbers after ± are the reported error.
# Method: steady-state kinetics
# B1: protein F222A (Planktothrix agardhii, UniProt F5B6Z0); chain MIVNVIQKDRLKEQKLQFIRNHQQAFDVEPIYPLPLFEDFVTSIEGDCSLEASCKIESDKLIASRFLLFFEDKTQEWQKYLHQSLTFFGLVENRVGVKINYSLLQQFLGSSFDFSKVTVLSAGIDLRNNLAESSLKMHIRIKDYPEKLDKAFALSDGAADGNYLKDFVNLIGFDFYFNGKSEIEIYAEVQEDDFFKPEINNLVWQHFPKTALQPLKASSLFATGLSKANNNPVLYYHLKNRQDLTNYFKLNDTAQRVHSFYQHQDILPYMWVGTAQKELEKTRIENIRLYYYKSFKMESN
# B2: moaA (Staphylococcus aureus, UniProt P69848); chain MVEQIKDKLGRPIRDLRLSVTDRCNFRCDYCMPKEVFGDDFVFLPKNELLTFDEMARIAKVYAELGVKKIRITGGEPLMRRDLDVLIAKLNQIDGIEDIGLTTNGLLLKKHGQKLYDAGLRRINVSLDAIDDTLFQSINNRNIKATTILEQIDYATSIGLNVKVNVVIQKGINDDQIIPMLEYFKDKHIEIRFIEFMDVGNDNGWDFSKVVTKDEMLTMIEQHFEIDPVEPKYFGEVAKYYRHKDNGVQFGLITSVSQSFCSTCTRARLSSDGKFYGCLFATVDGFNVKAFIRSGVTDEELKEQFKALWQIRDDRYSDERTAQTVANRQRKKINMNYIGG
# B3: sacB Y196F (Priestia megaterium, UniProt D5DC07); chain KGNDSKDFNNSYGISHITRDNMVKIPQQQNSDQFKVPAFDESTIKNIASAKGKNASGNTIDLDVWDSWPLQNADGTVATYHGYQIVFALAGDPKDSNDTSVYLFYKKAGDKSIDSWKNAGRVFKDSDKFVPNDPHLKNQTQEWSGSGTLTKDGKVRLFYTDYSGKQFGKQTLTTAQVNMSQPNDNTLKVDGVEDYKSIFDGDGKIYQTVQQFIDEGGYDTGDNHTLRDPHYIEDNGHKYLVFEANTGTEDGYQGEDSLYNRAYYGGNNPFFQSEKKKLLEGSNKEKASLANGALGIIELNDDYTLKKVMKPLITSNTVTDEIERANIFKKDGKWYLFTDSRGSKMTIDGIGQDDVYMLGYVSNTLTGKYKPLNDTGLVLHMDLDPNDKTFTYSHFAVPQTKGDNVVITSYMTNRGFYEDNHSTFAPSFLVNIDGSKTSVVKDRVLEQGQLTVDED
# B4: enzyme (Thermobifida fusca, UniProt Q47RA9); chain MIMIMASKSSPHDLPDVSGLSIAVLGGTGDQGRGLARRFAMAGHEVILGSRSAERAQAVAAELGEGLPVRGMDNAGAAEAGDVVIVAVPWDGHRALLESLKDVLAGKIVVDCVNPLGFDKRGAYALPVEEGSAAEQAAAILPDSRVVAAFHHVSAVLLLDPEVEKVDLDVLVLGDDREATDVVRALAARIPGVRGVYGGRLRNAHQVEAFTANLISINRRYKAHAGIRITDI
# B5: enzyme (Acinetobacter baumannii, UniProt D0CBC8); chain MALVLDGRALAKQIEENLLVRVEALKAKTGRTPILATILVGDDGASATYVRMKGNACRRVGMDSLKIELPQETTTEQLLAEIEKLNANPDVHGILLQHPVPAQIDERACFDAISLAKDVDGVTCLGFGRMAMGEAAYGSATPAGIMTILKENNIEIAGKHAVVVGRSAILGKPMAMMLLQANATVTICHSRTQNLPELVKQADIIVGAVGKAELIQKDWIKQGAVVVDAGFHPRDGGGVGDIQLQGIEEIASAYTPVPGGVGPMTITTLIRQTVEAAEKALG
# B6: iodotyrosine deiodinase (Haliscomenobacter hydrossis, UniProt F4KU78); chain MKQKPAFIPYAGAQFEPEEMLSKSAEYYQFMDHRRTVREFSNRAIPLEVIENIVMTASTAPSGAHKQPWTFVVVSDPQIKAKIRQAAEKEEFESYNGRMSNEWLEDLQPFGTDWHKPFLEIAPYLIVVFRKAYDVLPDGTQRKNYYVQESVGIACGFLLAAIHQAGLVALTHTPSPMNFLQKILQRPENERPFLLVPVGYPAEGAMVPDLQRKDKAAVMVVY
# B7: enzyme A178R/D177A/M179S/P184R (Levilactobacillus brevis, UniProt Q03Q85); chain MKVTVVGCTHAGTFAIKQILAEHPDAEVTVYERNDVISFLSCGIALYLGGKVADPQGLFYSSPEELQKLGANVQMNHNVLAIDPDQKTVTVEDLTNHAQTTESYDKLVMTSGSWPIVPKIPGIDSDRVKLCKNWAHAQALIEDAKEAKRITVIGAGYIGAELAEAYSTTGHDVTLIARSARVMRKYFDADFTDVIEQDYRDHGVQLALGETVESFTDSATGLTIKTDKNSYETDLAILCIGFRPNTDLLKGKVDMAPNGAIITDDYMRSSNPDIFAAGDSAAVHYNPTHQNAYIPLATNAVRQGILVGKNLVKPTVKYMGTQSSSGLALYDRTIVSTGLTLAAAKQQGLNAEQVIVEDNYRPEFMPSTEPVLMSLVFDPDTHRILGGALMSKYDVSQSANTLSVCIQNENTIDDLAMVDMLFQPNFDRPFNYLNILAQAAQAKVAQSVNA
# B8: enzyme E323G (UniProt H9KVH3); chain ADASQIVSEMGAGWNLGNQLEAAVNGTPNETAWGNPTVTPELIKKVKAAGFKSIRIPVSYLNNIGSAPNYTINAAWLNRIQQVVDYAYNEGLYVIINIHGDGYNSVQGGWLLVNGGNQTAIKEKYKKVWQQIATKFSNYNDRLIFESMNEVFDGNYGNPNSAYYTNLNAYNQIFVDTVRQTGGNNNARWLLVPGWNTNIDYTVGNYGFTLPTDNYRSSAIPSSQKRIMISAHYYSPWDFAGEENGNITQWGATSTNPAKKSTWGQEDYLESQFKSMYDKFVTQGYPVVIGGFGSIDKTSYDSSNNVYRAAYAKAVTAKAKKYKMVPVYWDNGHNGQHGFALFNRSNNTVTQQNIINAIMQGMQ
# B9: protein (Streptomyces coelicolor, UniProt P16544); chain MATQDSEVALVTGATSGIGLEIARRLGKEGLRVFVCARGEEGLRTTLKELREAGVEADGRTCDVRSVPEIEALVAAVVERYGPVDVLVNNAGRPGGGATAELADELWLDVVETNLTGVFRVTKQVLKAGGMLERGTGRIVNIASTGGKQGVVHAAPYSASKHGVVGFTKALGLELARTGITVNAVCPGFVETPMAASVREHYSDIWEVSTEEAFDRITARVPIGRYVQPSEVAEMVAYLIGPGAAAVTAQALNVCGGLGNY
# B10: protein (UniProt A0A4Y6I1F8); chain MGSEVVSKKHEFGALEVEGIDFRASVAALGSTKKLVLGGAGFRGLEINGNLVKFTAIGIYVEEAIIPHLSPKLGGKTVEELCANELLFEEVLSAPFDKLIRVVFLLPLTGPQYSEKVVERIGLLPNPGLKEESIKQFLEIFKAENFPPRTSLVCSFTEDGLKIAFMKGPDFPEESDAVIEDKYFARAFLATIIAKDGVSPMAKLSFAERVSKYL
# B11: TcC (Trypanosoma cruzi, UniProt Q4DGA3); chain MPREYEFAEKILFTEEEIRTRIMEVAKRIADDYKGKGLRPYVNPLVLISVLKGSFMFTADLCRALSDFNVPVRMEFICVSSYGEGVTSSGQVRMLLDTRHSIEGHHVLIVEDIVDTALTLNYLYHMYFTRRPASLKTVVLLDKREGRRVPFSADYVVANIPNAFVIGYGLDYDDTYRELRDIVVLRPEVYAEREAARQKKQRAIGSADTDRDAKREFHSKY
# Sequence of UniProt Q8QZR1 (whole entry, looked up): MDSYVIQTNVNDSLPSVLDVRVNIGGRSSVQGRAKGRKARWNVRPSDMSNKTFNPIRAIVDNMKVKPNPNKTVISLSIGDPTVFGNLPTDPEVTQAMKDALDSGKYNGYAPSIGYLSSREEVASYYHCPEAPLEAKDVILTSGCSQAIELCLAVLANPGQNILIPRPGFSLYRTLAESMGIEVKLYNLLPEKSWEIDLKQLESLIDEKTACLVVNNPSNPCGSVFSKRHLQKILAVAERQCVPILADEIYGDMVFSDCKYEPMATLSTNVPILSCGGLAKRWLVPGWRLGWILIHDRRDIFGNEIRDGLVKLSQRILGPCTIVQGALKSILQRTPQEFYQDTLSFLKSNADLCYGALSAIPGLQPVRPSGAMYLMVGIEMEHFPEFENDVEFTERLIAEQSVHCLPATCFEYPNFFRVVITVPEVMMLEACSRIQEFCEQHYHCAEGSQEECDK
# Sequence of UniProt Q9LTH2 (whole entry, looked up): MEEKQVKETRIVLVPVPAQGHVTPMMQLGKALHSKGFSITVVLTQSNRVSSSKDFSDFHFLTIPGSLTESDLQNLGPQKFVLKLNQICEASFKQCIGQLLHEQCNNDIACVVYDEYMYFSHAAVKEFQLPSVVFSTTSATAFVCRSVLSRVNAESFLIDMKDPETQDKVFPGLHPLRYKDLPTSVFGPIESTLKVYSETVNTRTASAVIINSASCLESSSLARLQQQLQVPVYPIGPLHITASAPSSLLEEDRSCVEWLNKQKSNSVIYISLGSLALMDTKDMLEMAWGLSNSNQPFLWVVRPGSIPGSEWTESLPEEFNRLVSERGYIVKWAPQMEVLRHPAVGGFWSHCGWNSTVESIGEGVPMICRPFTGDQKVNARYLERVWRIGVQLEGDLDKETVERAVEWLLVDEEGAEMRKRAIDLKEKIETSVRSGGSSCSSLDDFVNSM
# Sequence of UniProt P19337 (whole entry, looked up): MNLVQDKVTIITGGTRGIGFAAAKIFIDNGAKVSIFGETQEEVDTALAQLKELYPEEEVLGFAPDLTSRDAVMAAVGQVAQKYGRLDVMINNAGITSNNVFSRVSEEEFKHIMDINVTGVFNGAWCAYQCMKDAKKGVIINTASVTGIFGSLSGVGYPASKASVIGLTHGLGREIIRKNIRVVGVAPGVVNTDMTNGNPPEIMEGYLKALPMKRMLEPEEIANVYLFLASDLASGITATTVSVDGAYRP
Molecule,substrate,conditions,kcat/Km [M⁻¹ s⁻¹]
B1 (protein F222A),CC(C)=CCOP(=O)(O)OP(=O)(O)O,added: tri-Tyr peptide acceptor,38.5
"alanine aminopeptidase (Neisseria meningitidis, UniProt Q9JYV4)",N=C(NCCC[C@H](N)C(=O)Nc1ccc2c(CC(N)=O)cc(=O)oc2c1)N[N+](=O)[O-],"pH 7.5, 37 °C",120000 ± 2000
B2 (moaA),C[S+](CC[C@H](N)C(=O)O)C[C@H]1O[C@@H](n2cnc3c(N)ncnc32)[C@H](O)[C@@H]1O,"pH 7.6, 25 °C, added: GTP, dithionite, MgCl2 1 mM",183 ± 50
B3 (sacB Y196F),OC[C@H]1O[C@@](CO)(O[C@H]2O[C@H](CO)[C@@H](O)[C@H](O)[C@H]2O)[C@@H](O)[C@@H]1O,pH 6.9,9600
B4 (enzyme),NC(=O)c1ccc[n+](CCCO)c1,"pH 8, 25 °C",0.17 ± 0.022
"BaiA2 (Clostridium scindens, UniProt P19337)",C[C@H](CCC(=O)SCCNC(=O)CCNC(=O)[C@H](O)C(C)(C)COP(=O)(O)OP(=O)(O)OC[C@H]1O[C@@H](n2cnc3c(N)ncnc32)[C@H](O)[C@@H]1OP(=O)(O)O)[C@H]1CC[C@H]2[C@@H]3CC[C@@H]4C[C@H](O)CC[C@]4(C)[C@H]3CC[C@]12C,"pH 8.7, 37 °C, added: NAD+",10200
"enzyme (Brachypodium distachyon, UniProt I1HY48)",NC(=O)C1=CN([C@@H]2O[C@H](COP(=O)(O)OP(=O)(O)OC[C@H]3O[C@@H](n4cnc5c(N)ncnc54)[C@H](OP(=O)(O)O)[C@@H]3O)[C@@H](O)[C@H]2O)C=CC1,"pH 6.25, 23 °C, cofactor varied",5.3e+06
B5 (enzyme),NC(=O)c1ccc[n+]([C@@H]2O[C@H](COP(=O)(O)OP(=O)(O)OC[C@H]3O[C@@H](n4cnc5c(N)ncnc54)[C@H](OP(=O)(O)O)[C@@H]3O)[C@@H](O)[C@H]2O)c1,"pH 7.3, 27 °C, cofactor varied",1.1e+06
B6 (iodotyrosine deiodinase),N[C@@H](Cc1cc(F)c(O)c(I)c1)C(=O)O,"pH 7.4, 25 °C",7000 ± 3000
B7 (enzyme A178R/D177A/M179S/P184R),NC(=O)C1=CN([C@@H]2O[C@H](COP(=O)(O)OP(=O)(O)OC[C@H]3O[C@@H](n4cnc5c(N)ncnc54)[C@H](OP(=O)(O)O)[C@@H]3O)[C@@H](O)[C@H]2O)C=CC1,"pH 7.5, 37 °C, per site",2.7e+07 ± 6e+06
B8 (enzyme E323G),OC[C@H]1O[C@@H](O[C@H]2[C@@H](OC[C@H]3O[C@@H](O[C@H]4[C@H](O)[C@@H](O)[C@H](O[C@H]5[C@H](O)[C@@H](O)[C@@H](F)O[C@@H]5CO)O[C@@H]4CO[C@H]4OC[C@@H](O)[C@H](O)[C@H]4O[C@@H]4O[C@H](CO)[C@H](O)[C@H](O)[C@H]4O)[C@H](O)[C@@H](O)[C@@H]3O[C@@H]3O[C@H](CO[C@H]4OC[C@@H](O)[C@H](O)[C@H]4O)[C@@H](O)[C@H](O)[C@H]3O)OC[C@@H](O)[C@@H]2O)[C@H](O)[C@@H](O)[C@H]1O,"pH 7.5, 30 °C, apparent",617
"PGDH1 (Amborella trichopoda, UniProt U5D351)",O=C(O)[C@H](O)COP(=O)(O)O,"pH 9, 25 °C, NaCl 0.1 M, apparent, added: NAD+",25100 ± 2200
"Tat (Mus musculus, UniProt Q8QZR1)",O=C(O)C(=O)Cc1ccccc1,"pH 7, 38 °C, added: PLP",3000
B9 (protein),O[C@@H]1CCCc2ccccc21,"pH 7.4, phosphate 400 mM, NADPH 250 µM printed, added: NADP+, reverse reaction",10 ± 1
B10 (protein),O=C(/C=C/c1ccc(O)cc1)c1c(O)cc(O)cc1O,,1.57e+06
"enzyme (Arabidopsis thaliana, UniProt Q9LTH2)",O=c1ccn([C@@H]2O[C@H](CO[P@@](=O)(O)O[P@@](=O)(O)O[C@H]3O[C@H](CO)[C@@H](O)[C@H](O)[C@H]3O)[C@@H](O)[C@H]2O)c(=O)[nH]1,"pH 7.5, 25 °C",1230
B11 (TcC),O=P(O)(O)OC[C@H]1O[C@H](OP(=O)(O)OP(=O)(O)O)[C@H](O)[C@@H]1O,"pH 8.3, 37 °C, GMP biosynthesis, apparent, added: Gua 100 µM",930000 ± 90000

# A few entries again:
Molecule,substrate,conditions,kcat/Km [M⁻¹ s⁻¹]
"enzyme (Brachypodium distachyon, UniProt I1HY48)",NC(=O)C1=CN([C@@H]2O[C@H](COP(=O)(O)OP(=O)(O)OC[C@H]3O[C@@H](n4cnc5c(N)ncnc54)[C@H](OP(=O)(O)O)[C@@H]3O)[C@@H](O)[C@H]2O)C=CC1,"pH 6.25, 23 °C, cofactor varied",5.3e+06
B2 (moaA),C[S+](CC[C@H](N)C(=O)O)C[C@H]1O[C@@H](n2cnc3c(N)ncnc32)[C@H](O)[C@@H]1O,"pH 7.6, 25 °C, added: GTP, dithionite, MgCl2 1 mM",183 ± 50
"alanine aminopeptidase (Neisseria meningitidis, UniProt Q9JYV4)",N=C(NCCC[C@H](N)C(=O)Nc1ccc2c(CC(N)=O)cc(=O)oc2c1)N[N+](=O)[O-],"pH 7.5, 37 °C",120000 ± 2000
